Measured values collected from several papers.
Protocols differ between the studies behind these lines. ± marks the error that the study gave.
GLP1R: Glucagon-like peptide 1 receptor (GLP1R, Homo sapiens, UniProt P43220)
Sequence of UniProt P28335 (whole entry, looked up): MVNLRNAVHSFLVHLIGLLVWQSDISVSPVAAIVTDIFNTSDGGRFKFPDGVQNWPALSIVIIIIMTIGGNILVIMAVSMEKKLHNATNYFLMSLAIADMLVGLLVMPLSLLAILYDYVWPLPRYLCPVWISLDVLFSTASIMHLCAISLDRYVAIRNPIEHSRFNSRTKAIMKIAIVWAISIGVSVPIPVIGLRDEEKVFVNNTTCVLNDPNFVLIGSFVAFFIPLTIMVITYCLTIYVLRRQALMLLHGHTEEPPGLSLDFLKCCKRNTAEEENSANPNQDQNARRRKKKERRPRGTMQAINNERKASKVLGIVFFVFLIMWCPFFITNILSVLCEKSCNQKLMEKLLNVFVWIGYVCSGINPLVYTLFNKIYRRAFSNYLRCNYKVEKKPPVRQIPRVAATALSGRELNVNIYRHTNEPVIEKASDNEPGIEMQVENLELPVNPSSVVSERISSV
Sequence of UniProt Q969F8 (whole entry, looked up): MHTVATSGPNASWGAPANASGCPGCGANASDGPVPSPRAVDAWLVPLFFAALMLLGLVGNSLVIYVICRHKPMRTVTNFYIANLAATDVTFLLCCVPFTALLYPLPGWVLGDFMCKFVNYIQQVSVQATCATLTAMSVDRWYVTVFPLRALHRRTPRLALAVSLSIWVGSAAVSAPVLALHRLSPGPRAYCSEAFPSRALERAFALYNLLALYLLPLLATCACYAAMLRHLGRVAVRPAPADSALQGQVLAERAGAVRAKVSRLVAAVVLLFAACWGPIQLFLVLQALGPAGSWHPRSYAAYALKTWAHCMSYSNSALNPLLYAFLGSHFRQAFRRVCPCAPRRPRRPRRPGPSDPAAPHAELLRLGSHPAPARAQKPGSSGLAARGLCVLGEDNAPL
Sequence of UniProt P48047 (whole entry, looked up): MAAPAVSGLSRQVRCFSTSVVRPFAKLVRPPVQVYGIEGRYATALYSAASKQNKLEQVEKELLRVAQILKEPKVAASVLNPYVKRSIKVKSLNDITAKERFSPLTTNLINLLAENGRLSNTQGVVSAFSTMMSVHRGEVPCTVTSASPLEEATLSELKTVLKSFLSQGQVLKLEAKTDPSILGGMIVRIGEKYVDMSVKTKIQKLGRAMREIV
Sequence of UniProt Q704Y3 (whole entry, unmodified, looked up): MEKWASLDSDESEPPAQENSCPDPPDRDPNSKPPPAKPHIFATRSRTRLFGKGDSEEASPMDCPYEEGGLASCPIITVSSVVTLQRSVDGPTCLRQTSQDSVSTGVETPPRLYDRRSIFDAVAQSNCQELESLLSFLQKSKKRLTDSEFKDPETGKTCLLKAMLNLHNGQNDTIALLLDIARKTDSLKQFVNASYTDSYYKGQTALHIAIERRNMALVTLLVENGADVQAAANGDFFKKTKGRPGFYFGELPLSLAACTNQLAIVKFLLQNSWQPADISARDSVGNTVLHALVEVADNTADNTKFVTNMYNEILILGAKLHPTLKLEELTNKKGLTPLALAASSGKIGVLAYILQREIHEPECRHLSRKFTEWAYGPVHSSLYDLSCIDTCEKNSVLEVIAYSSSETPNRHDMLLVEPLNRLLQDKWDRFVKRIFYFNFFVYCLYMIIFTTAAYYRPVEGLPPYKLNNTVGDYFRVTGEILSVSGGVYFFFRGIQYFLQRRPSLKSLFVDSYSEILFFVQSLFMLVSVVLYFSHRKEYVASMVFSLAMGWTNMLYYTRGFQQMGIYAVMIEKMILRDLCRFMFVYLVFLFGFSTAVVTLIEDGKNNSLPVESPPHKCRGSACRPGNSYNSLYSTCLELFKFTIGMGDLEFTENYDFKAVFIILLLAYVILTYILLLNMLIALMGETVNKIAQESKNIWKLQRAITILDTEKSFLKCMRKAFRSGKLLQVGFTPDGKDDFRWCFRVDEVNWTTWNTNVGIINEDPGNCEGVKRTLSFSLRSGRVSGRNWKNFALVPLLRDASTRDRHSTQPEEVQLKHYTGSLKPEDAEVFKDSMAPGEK
Sequence of UniProt P08172 (whole entry, looked up): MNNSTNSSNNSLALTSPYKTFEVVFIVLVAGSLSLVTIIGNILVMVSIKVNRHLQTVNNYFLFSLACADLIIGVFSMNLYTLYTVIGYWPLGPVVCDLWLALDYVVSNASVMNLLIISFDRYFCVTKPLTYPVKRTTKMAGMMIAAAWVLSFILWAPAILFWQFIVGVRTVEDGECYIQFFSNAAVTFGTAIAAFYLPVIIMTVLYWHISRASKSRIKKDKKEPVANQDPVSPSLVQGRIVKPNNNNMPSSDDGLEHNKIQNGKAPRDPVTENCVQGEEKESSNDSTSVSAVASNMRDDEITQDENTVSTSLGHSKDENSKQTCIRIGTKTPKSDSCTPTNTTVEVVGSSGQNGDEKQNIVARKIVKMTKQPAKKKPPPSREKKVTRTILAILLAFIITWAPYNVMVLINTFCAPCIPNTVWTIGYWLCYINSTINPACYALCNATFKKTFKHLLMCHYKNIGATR

CCCCC/C=C\C/C=C\C/C=C\C/C=C\CCCC(=O)NCCO  EC50 (Transient receptor potential cation channel subfamily V member 1 (Trpv1, Mus musculus, UniProt Q704Y3, S513A); ion current, agonist, whole-cell patch clamp; 24 °C, +80 mV): 4620 ± 1190 nM
C[C@H]1CN(c2n[nH]c3nc(N[C@H]4CC[C@H](NS(=O)(=O)CCC(F)(F)F)CC4)ncc23)CCO1  remaining binding (ATP synthase peripheral stalk subunit OSCP, mitochondrial (Homo sapiens, UniProt P48047); Kinobeads competition, measured: ATP5O; 0.16 µM, unit not given; baseline: vehicle): 1.08
CC[C@H](C)[C@H](NC(=O)[C@H](Cc1ccccc1)NC(=O)[C@H](CCC(=O)O)NC(=O)[C@H](CCCNC(=N)N)NC(=O)[C@H](C)NC(=O)[C@H](C)NC(=O)[C@H](CCC(N)=O)NC(=O)[C@H](CCC(=O)O)NC(=O)[C@H](CCC(=O)O)NC(=O)[C@H](CC(C)C)NC(=O)[C@H](Cc1ccc(O)cc1)NC(=O)[C@H](CO)NC(=O)[C@H](CO)NC(=O)[C@@H](NC(=O)[C@H](CC(=O)O)NC(=O)[C@H](CO)NC(=O)[C@@H](NC(=O)[C@H](Cc1ccccc1)NC(=O)[C@@H](NC(=O)CNC(=O)[C@H](CCC(=O)O)NC(=O)[C@H](C)NC(=O)CCc1cnc[nH]1)[C@@H](C)O)[C@@H](C)O)C(C)C)C(=O)N[C@@H](C)C(=O)N[C@@H](Cc1c[nH]c2ccccc12)C(=O)N[C@@H](CC(C)C)C(=O)N[C@H](C(=O)N[C@@H](CCCCNC(=O)COCCOCCNC(=O)COCCOCCNC(=O)CC[C@H](NC(=O)CCCCCCCCCCCCCCCCC(=O)O)C(=O)O)C(=O)NCC(=O)N[C@@H](CCCNC(=N)N)C(=O)N[C@@H](CCCCNc1c(NCCCCCN(O)C(=O)CCC(=O)NCCCCCN(O)C(=O)CCC(=O)NCCCCCN(O)C(C)=O)c(=O)c1=O)C(=O)NCC(=O)NCC(=O)N[C@@H](CO)C(=O)N[C@@H](CCCCNc1c(NCCCCCN(O)C(=O)CCC(=O)NCCCCCN(O)C(=O)CCC(=O)NCCCCCN(O)C(C)=O)c(=O)c1=O)C(=O)NCC(=O)NCC(=O)N[C@@H](CO)C(=O)N[C@@H](CCCCNc1c(NCCCCCN(O)C(=O)CCC(=O)NCCCCCN(O)C(=O)CCC(=O)NCCCCCN(O)C(C)=O)c(=O)c1=O)C(=O)O)C(C)C  EC50 (GLP1R; cAMP reporter gene, agonist, CRE luciferase; BHK; with Zr, 1% HSA): 0.28 nM
Clc1cc2c(cc1Cl)Oc1cc(Cl)c(Cl)cc1O2  EC50 (Uncharacterized protein (Takifugu rubripes, UniProt Q4JHL5); reporter gene, agonist, dual-luciferase; COS-7; 24 h): 0.32 ± 0.2 nM
CC[C@H](C)[C@H](NC(=O)[C@H](Cc1ccccc1)NC(=O)[C@H](CCC(=O)O)NC(=O)[C@H](CCCNC(=N)N)NC(=O)[C@H](C)NC(=O)[C@H](C)NC(=O)[C@H](CCC(N)=O)NC(=O)[C@H](CCC(=O)O)NC(=O)[C@H](CCC(=O)O)NC(=O)[C@H](CC(C)C)NC(=O)[C@H](Cc1ccc(O)cc1)NC(=O)[C@H](CO)NC(=O)[C@H](CO)NC(=O)[C@@H](NC(=O)[C@H](CC(=O)O)NC(=O)[C@H](CO)NC(=O)[C@@H](NC(=O)[C@H](Cc1ccccc1)NC(=O)[C@@H](NC(=O)CNC(=O)[C@H](CCC(=O)O)NC(=O)[C@H](C)NC(=O)CCc1cnc[nH]1)[C@@H](C)O)[C@@H](C)O)C(C)C)C(=O)N[C@@H](C)C(=O)N[C@@H](Cc1c[nH]c2ccccc12)C(=O)N[C@@H](CC(C)C)C(=O)N[C@H](C(=O)N[C@@H](CCCNC(=N)N)C(=O)NCC(=O)N[C@@H](CCCNC(=N)N)C(=O)N[C@@H](CCCCNC(=O)COCCOCCNC(=O)COCCOCCNC(=O)CC[C@H](NC(=O)CCCCCCCCCCCCCCCCC(=O)O)C(=O)O)C(=O)NCC(=O)NCC(=O)N[C@@H](CO)C(=O)N[C@@H](CCCCNc1c(NCCCCCN(O)C(=O)CCC(=O)NCCCCCN(O)C(=O)CCC(=O)NCCCCCN(O)C(C)=O)c(=O)c1=O)C(=O)N[C@@H](CCCCNc1c(NCCCCCN(O)C(=O)CCC(=O)NCCCCCN(O)C(=O)CCC(=O)NCCCCCN(O)C(C)=O)c(=O)c1=O)C(=O)O)C(C)C  EC50 (GLP1R; cAMP reporter gene, agonist, CRE luciferase; BHK; without Zr, 0% HSA): 0.012 nM
CC[C@H](C)[C@H](NC(=O)[C@H](Cc1ccccc1)NC(=O)[C@H](CC(=O)O)NC(=O)[C@H](CCCNC(=N)N)NC(=O)[C@@H](NC(=O)[C@H](C)NC(=O)[C@H](CC(C)C)NC(=O)[C@H](CC(N)=O)NC(=O)[C@H](CC(=O)O)NC(=O)[C@H](CC(C)C)NC(=O)[C@@H](NC(=O)[C@@H](NC(=O)[C@H](CO)NC(=O)[C@H](CCSC)NC(=O)[C@H](CCC(=O)O)NC(=O)[C@H](CC(=O)O)NC(=O)[C@H](CO)NC(=O)[C@H](Cc1ccccc1)NC(=O)[C@H](CO)NC(=O)CNC(=O)[C@H](CC(=O)O)NC(=O)[C@H](C)NC(=O)[C@@H](N)Cc1c[nH]cn1)[C@@H](C)O)[C@@H](C)CC)[C@@H](C)O)C(=O)N[C@@H](CC(N)=O)C(=O)N[C@@H](Cc1c[nH]c2ccccc12)C(=O)N[C@@H](CC(C)C)C(=O)N[C@H](C(=O)N[C@@H](CCC(N)=O)C(=O)N[C@H](C(=O)N[C@@H](CCCCN)C(=O)N[C@H](C(=O)N[C@H](C(=O)N[C@@H](CC(=O)O)C(=O)O)[C@@H](C)O)[C@@H](C)CC)[C@@H](C)O)[C@@H](C)CC  EC50 (GLP1R; reporter gene, agonist, CRE-luciferase reporter; HEK-293T; 12 h): 19.7 nM
CC[C@H](C)[C@H](NC(=O)[C@H](Cc1ccccc1)NC(=O)[C@H](CCC(=O)O)NC(=O)[C@H](CCCNC(=N)N)NC(=O)[C@H](C)NC(=O)[C@H](C)NC(=O)[C@H](CCC(N)=O)NC(=O)[C@H](CCC(=O)O)NC(=O)[C@H](CCC(=O)O)NC(=O)[C@H](CC(C)C)NC(=O)[C@H](Cc1ccc(O)cc1)NC(=O)[C@H](CO)NC(=O)[C@H](CO)NC(=O)[C@@H](NC(=O)[C@H](CC(=O)O)NC(=O)[C@H](CO)NC(=O)[C@@H](NC(=O)[C@H](Cc1ccccc1)NC(=O)[C@@H](NC(=O)CNC(=O)[C@H](CCC(=O)O)NC(=O)[C@H](C)NC(=O)CCc1c[nH]cn1)[C@@H](C)O)[C@@H](C)O)C(C)C)C(=O)N[C@@H](C)C(=O)N[C@@H](Cc1c[nH]c2ccccc12)C(=O)N[C@@H](CC(C)C)C(=O)N[C@H](C(=O)N[C@@H](CCCNC(=N)N)C(=O)NCC(=O)N[C@@H](CCCNC(=N)N)C(=O)N[C@@H](CCCCNC(=O)COCCOCCNC(=O)COCCOCCNC(=O)CC[C@H](NC(=O)CCCCCCCCCCCCCCCCC(=O)O)C(=O)O)C(=O)NCC(=O)NCC(=O)N[C@@H](CO)C(=O)N[C@@H](CCCCNc1c(NCCCCCN(O)C(=O)CCC(=O)NCCCCCN(O)C(=O)CCC(=O)NCCCCCN(O)C(C)=O)c(=O)c1=O)C(=O)O)C(C)C [zirconium-89 labelled]  tissue uptake (rat, duodenum; sc, 3 nmol/kg, 168 h, ex vivo): 0.11 %ID/g
c1cc(N2CCNCC2)c2cc[nH]c2c1  EC50 (Muscarinic acetylcholine receptor M2 (CHRM2, Homo sapiens, UniProt P08172); ERK1/2 phosphorylation, agonist; CHO cells): > 20000 nM
O=C(C1CCCCC1)N1CC(=O)N2CCc3ccccc3[C@@H]2C1  EC50 (TRPM channel TRPM_PZQ (Schistosoma japonicum, UniProt A0A4Z2DYB8)): 361 ± 69 nM
CO[C@H]1C[C@@H]2CC[C@@H](C)[C@@](O)(O2)C(=O)C(=O)N2CCCC[C@H]2C(=O)O[C@H]([C@H](C)C[C@@H]2CC[C@@H](OC(=O)NCCOCCOCCOCCOCCOCCOCCOCCOCCC(=O)N3CCc4cc(Cn5nc(-c6ccc7oc(N)nc7c6)c6c(N)ncnc65)ccc4C3)[C@H](OC)C2)C[C@@H](O)[C@H](C)/C=C(\C)[C@@H](O)[C@@H](OC)C(=O)[C@H](C)C[C@H](C)/C=C/C=C/C=C/1C  fatigue incidence (patients with advanced solid tumours; intravenous, 12 mg weekly, any grade): 41.7%
COc1cc(C(=O)N2CC[C@@H](O)[C@@H](N)C2)cc2nc(-c3cc4ccccc4n3CC3CC3)n(C)c12  EC50 (5-hydroxytryptamine receptor 2C (HTR2C, Homo sapiens, UniProt P28335); intracellular calcium, agonist, luminescence): > 39800 nM
CC[C@H](C)[C@H](NC(=O)[C@H](Cc1ccccc1)NC(=O)[C@H](CCC(=O)O)NC(=O)[C@H](CCCNC(=N)N)NC(=O)[C@H](C)NC(=O)[C@H](C)NC(=O)[C@H](CCC(N)=O)NC(=O)[C@H](CCC(=O)O)NC(=O)[C@H](CCC(=O)O)NC(=O)[C@H](CC(C)C)NC(=O)[C@H](Cc1ccc(O)cc1)NC(=O)[C@H](CO)NC(=O)[C@H](CO)NC(=O)[C@@H](NC(=O)[C@H](CC(=O)O)NC(=O)[C@H](CO)NC(=O)[C@@H](NC(=O)[C@H](Cc1ccccc1)NC(=O)[C@@H](NC(=O)CNC(=O)[C@H](CCC(=O)O)NC(=O)[C@H](C)NC(=O)CCc1cnc[nH]1)[C@@H](C)O)[C@@H](C)O)C(C)C)C(=O)N[C@@H](C)C(=O)N[C@@H](Cc1c[nH]c2ccccc12)C(=O)N[C@@H](CC(C)C)C(=O)N[C@H](C(=O)N[C@@H](CCCNC(=N)N)C(=O)NCC(=O)N[C@@H](CCCNC(=N)N)C(=O)N[C@@H](CCCCNC(=O)COCCOCCNC(=O)COCCOCCNC(=O)CC[C@H](NC(=O)CCCCCCCCCCCCCCCCC(=O)O)C(=O)O)C(=O)NCC(=O)NCC(=O)N[C@@H](CO)C(=O)N[C@@H](CCCCNc1c(NCCCCCN(O)C(=O)CCC(=O)NCCCCCN(O)C(=O)CCC(=O)NCCCCCN(O)C(C)=O)c(=O)c1=O)C(=O)NCC(=O)NCC(=O)N[C@@H](CO)C(=O)N[C@@H](CCCCNc1c(NCCCCCN(O)C(=O)CCC(=O)NCCCCCN(O)C(=O)CCC(=O)NCCCCCN(O)C(C)=O)c(=O)c1=O)C(=O)O)C(C)C  EC50 (GLP1R; cAMP reporter gene, agonist, CRE luciferase; BHK; with Zr, 1% HSA): 0.1 nM
COc1cc(Nc2ncc(F)c(Nc3ccc4c(n3)NC(=O)C(C)(C)O4)n2)cc(OC)c1OC  IC50 (KiSS-1 receptor (KISS1R, Homo sapiens, UniProt Q969F8)): > 10000 nM

For quick reference, copied from above:
COc1cc(Nc2ncc(F)c(Nc3ccc4c(n3)NC(=O)C(C)(C)O4)n2)cc(OC)c1OC  IC50 (KiSS-1 receptor (KISS1R, Homo sapiens, UniProt Q969F8)): > 10000 nM
